Experimental data gathered from unrelated publications.
Each line is one published result; not all experiments were run side by side. ± marks the error that the study gave. ≈ marks a conversion by molar mass, not a printed value.

The unbound fraction of `CN1CC[C@@H](NC(=O)Nc2ccc(C#N)cc2)C[C@@H]1c1nc2ccccc2[nH]1` is reported as 0.08 ± 0.01 (equilibrium dialysis; human, normal hepatic function, plasma; 6 h after dose, arithmetic mean).
`C[C@](N)(Cc1ccc(O)c(O)c1)C(=O)O` gave a solubility of 428 µg/mL (≈ 2030 µM) (supercritical carbon dioxide; 5 h, 343 K, 30 MPa, density 788.9 kg/m3).
The helicity of `CC(=O)N[C@@H](CCCCN)C(=O)N[C@@H](CCCCN)C(=O)N[C@@H](CCCNC(=N)N)C(=O)N[C@@H](Cc1ccc(O)cc1)C(=O)N[C@@H](CC(=O)O)C(=O)N[C@@H](CCCNC(=N)N)C(=O)N[C@@H](CCC(=O)O)C(=O)N[C@@H](Cc1ccccc1)C(=O)N[C@@H](CC(C)C)C(=O)N[C@@H](CC(C)C)C(=O)NCC(=O)N[C@@H](Cc1ccccc1)C(=O)N[C@@H](CCC(N)=O)C(=O)N[C@@H](Cc1ccccc1)C(N)=O` is reported as 2.5% (CD spectroscopy; sodium phosphate buffer; 25 to 100 µM, pH 7.4, 25 °C).
For `CNCc1ccc(-c2[nH]c3cc(F)cc4c3c2CCNC4=O)cc1`, “volume of distribution” read 403 L (human cancer patients, plasma; intravenous, 4 mg/m2, day 4, together with: temozolomide 100).
For `Cc1nc2cccc(OCC(C)(C)C(=O)NC(C)C)c2c(N)c1C(=O)O`, the AUC(0-t) was 86 ng·h/mL (male Sprague-Dawley rat, plasma; oral, 30 mg/kg).
For `CNCc1ccc(-c2[nH]c3cc(F)cc4c3c2CCNC4=O)cc1`, the half-life was 14.4 h (human, fed high-fat meal, plasma; oral, 600 mg, single dose, median).
The AUC of `CCCSc1nc(N[C@@H]2C[C@H]2c2ccc(F)c(F)c2)c2nnn([C@@H]3C[C@H](OCCO)[C@@H](O)[C@H]3O)c2n1` is reported as 16.8 µM·h (male Wistar Han rats, plasma; oral, 20 mg/kg/day, week 26, carcinogenicity study).
`CCCC[C@@H]1NC(=O)[C@@H](NC(=O)[C@H](CCC(=O)O)NC(=O)CNC(=O)CN2CCN(CC(=O)O)CCN(CC(=O)O)CCN(CC(=O)O)CC2)CCCCNC(=O)C[C@@H](C(N)=O)NC(=O)[C@H](C(C)C)NC(=O)[C@@H]2CCCN2C(=O)[C@H](CCCNC(=N)N)NC(=O)CNC(=O)[C@H](Cc2c[nH]c3ccccc23)NC(=O)[C@H](CCCNC(=N)N)NC(=O)[C@@H](Cc2ccccc2)NC(=O)[C@H](Cc2c[nH]cn2)NC(=O)[C@H](CCC(=O)O)NC1=O` [indium-111 labelled] has a tissue uptake of 0.03 ± 0.01 %ID/g (normal C57 mice, bone; intravenous, 0.037 MBq, 2 h).
`COc1ccc(CCN2CCC(Nc3nc4ccccc4n3Cc3ccc(F)cc3)CC2)cc1` has a logP of 5 (1-octanol/PBS; pH 7.4).
For `CC(C)C[C@@H]1NC(=O)CN(C)C(=O)[C@H](Cc2ccccc2)NCc2ccc([nH]2)CNC1=O`, the Papp was 1.45 ×10⁻⁶ cm/s (PAMPA; 100 µM, 17 h, pH 6.4).
`CC(C)C[C@H](NC(=O)[C@H](CCCNC(=N)N)NC(=S)Nc1ccc(C[C@H]2CN(CC(=O)O)CCN(CC(=O)O)CCN2CC(=O)O)cc1)C(=O)N[C@@H](CC(N)=O)C(=O)N[C@H](C(=O)NCC(=O)NCC(=O)N[C@H](C(=O)N[C@@H](Cc1ccc(O)cc1)C(=O)N[C@@H](Cc1ccccc1)C(=O)N[C@@H](CC(C)C)C(=O)N[C@H](C(=O)N[C@H](C(=O)N[C@@H](CCCNC(=N)N)C(=O)N[C@@H](CCC(N)=O)C(=O)O)[C@@H](C)O)[C@@H](C)O)[C@@H](C)O)C(C)C`: “HPLC retention time” 14.5 min (reverse-phase HPLC).
`Cc1[nH]c(=O)c(CNC(=O)c2ccc([N+](=O)[O-])nc2)c2c1CCCC2` gave a kinetic solubility of 144 µg/mL (≈ 421 µM) (U-HPLC; 20% DMSO in water).
The AUC(0-last) of `CCCC[C@H](NC(C)=O)C(=O)N[C@H]1CCC(=O)NC[C@@H](C(=O)N[C@@H](Cc2c[nH]c3ccccc23)C(N)=O)NC(=O)[C@H](CCCNC(=N)N)NC(=O)[C@@H](Cc2ccccc2)NC(=O)[C@H](Cc2c[nH]cn2)NC1=O` is reported as 194 ng·h/mL (beagle dog, male, plasma; subcutaneous, 1.5 mg/kg daily, day 28).
`Cc1ccc(NC(=O)c2ccc(CN3CCN(C)CC3)cc2)cc1Nc1nccc(-c2cncc(-c3oncc3C)c2)n1` gave a dose-normalised AUC(0-inf) of 642 ng·h/mL/mg (Parkinson's disease patients, plasma; oral, 50.0 mg once daily, day 7, 7-day dosing, mean).
The recovery time of `C[C@H]1CNCCCN1S(=O)(=O)c1cccc2cncc(F)c12` is reported as 6 h (corneal endothelial cell morphology; human male; topical ocular, 1 drop per eye twice daily).
`CC(C)=CCC[C@](C)(O[C@@H]1O[C@H](CO[C@@H]2O[C@H](CO)[C@@H](O)[C@H](O)[C@H]2O)[C@@H](O)[C@H](O)[C@H]1O)[C@H]1CC[C@]2(C)[C@@H]1[C@H](O)C[C@@H]1[C@@]3(C)CC[C@H](O[C@@H]4O[C@H](CO)[C@@H](O)[C@H](O)[C@H]4O[C@@H]4O[C@H](CO)[C@@H](O)[C@H](O)[C@H]4O)C(C)(C)[C@@H]3CC[C@]12C` — result for “post-preparative stability accuracy”: 102 ± 4.5% (rat, extracted tissue homogenate QC samples; 0.2 µg/mL, 24 h, 15 °C, autosampler).
Under “tissue to peel content ratio”, `COc1ccc(-c2oc3c(OC)c(OC)c(OC)c(OC)c3c(=O)c2OC)cc1OC` is recorded as 0.258% (C57BL/6 mouse, male, colon; oral, 1% w/w in diet, 6 weeks, orange peel extract diet; baseline: content in orange peel).
Under “deviation from nominal”, `O=C(O)[C@H](c1ccccc1Cl)N1CCc2sccc2C1` is recorded as -11% (HPLC-MS/MS; feline EDTA plasma; 72 h, 4 °C, storage stability).
The tissue/plasma ratio of `OC[C@H]1O[C@@H](c2ccc(F)c(Cc3cc4ccccc4s3)c2)[C@H](O)[C@@H](O)[C@@H]1O` is reported as 301 ± 86.9 (Wistar rat, male, kidney; oral, dose not given, 24 h; baseline: kidney over plasma concentration).
`C=C(C)[C@@H]1CC[C@]2(NCCN3CCS(=O)(=O)CC3)CC[C@]3(C)[C@H](CC[C@@H]4[C@@]5(C)CC=C(C6=CC[C@@](CF)(C(=O)O)CC6)C(C)(C)[C@@H]5CC[C@]43C)[C@@H]12`: “placebo-corrected QRS change” under 1 ms (healthy human; oral, 100 and 500 mg, Holter ECG, post-dose time points; baseline: baseline).
`CN(C)C(=N)N=C(N)N` — result for “hepatocyte necrosis score”: 0 (Sprague-Dawley rat, male, liver; oral, 100 mg/kg, 6 h, single low dose; direction not given).
For `COc1ccc2cc3[n+](cc2c1OC)CCc1cc2c(cc1-3)OCO2`, the measured concentration was 0.56 ± 0.06 ng/mL (rat plasma QC sample; 0.5 ng/mL nominal, 15 days, -80 °C, low QC level storage stability).
`COC(=O)N[C@H](C(=O)N[C@@H](Cc1ccccc1)[C@@H](O)CN(Cc1ccc(-c2ccccn2)cc1)NC(=O)[C@@H](NC(=O)OC)C(C)(C)C)C(C)(C)C` — result for “free drug permeability”: 51.7 ± 8.1 ×10⁻⁶ cm/s (modified PAMPA Franz cell; phosphate buffer with HPMCAS; stock 20 mg/mL, 3 h, 37 °C, 460 nm system, 300 rpm, together with: 3% BSA receiver).
The Vss/F of `COc1cc(OC)c(/C=C/S(=O)(=O)Cc2ccc(OC)c(NCC(=O)O)c2)c(OC)c1` is reported as 473 ± 138 L (cancer patients, phase I, plasma; oral, 700 mg twice daily, day 21 cycle 1).
`CC[C@H](C)[C@@H]1NC(=O)[C@H](Cc2ccc(O)cc2)NC(=O)[C@@H](N)CSSC[C@@H](C(=O)N2CCC[C@H]2C(=O)N[C@@H](CC(C)C)C(=O)NCC(N)=O)NC(=O)[C@H](CC(N)=O)NC(=O)[C@H](CCC(N)=O)NC1=O` has a half-life of 0.335 ± 0.075 h (microdialysis, radioimmunoassay; C57BL/6J male mice, wild type, hippocampus extracellular fluid; intraperitoneal, 12 µg total, time to half of Cmax).
For `CCN(CC)CCNC(=O)c1c(C)[nH]c(/C=C2\C(=O)Nc3ccc(F)cc32)c1C`, “minimum trough plasma concentration” read 24.2 ng/mL (human, plasma; oral, 20 mg/m2, day 21).
`CCOc1cc(C(C)(C)C)ccc1C1=N[C@@](C)(c2ccc(Cl)cc2)[C@@](C)(c2ccc(Cl)cc2)N1C(=O)N1CCN(CCCS(C)(=O)=O)CC1` has a Tmax of 2 to 8 h (athymic nude mice, orthotopic GBM, plasma; oral, 100 mg/kg).
`Cn1c(-c2ccc(C(N)=O)cc2F)nnc1C(C)(C)Oc1c(F)cc(Cl)cc1F` has a Cmax median of 856 ng/mL (healthy young Japanese subjects, plasma; oral, 50 mg once daily, day 18, 14 days dosing).
`CCOC(=O)C1=C[C@@H](OC(CC)CC)[C@H](NC(C)=O)[C@@H](N)C1` gave an AUC(0-48 h) of 145 ± 32 ng·h/mL (healthy Indian human, plasma; oral, 75 mg single, test capsule fed).
For `CC[C@H](C)[C@H](NC(=O)[C@H](Cc1ccccc1)NC(=O)[C@H](CCC(=O)O)NC(=O)[C@H](CCCCNC(=O)COCCOCCNC(=O)COCCOCCNC(=O)CC[C@H](NC(=O)CCCCCCCCCCCCCCCCC(=O)O)C(=O)O)NC(=O)[C@H](C)NC(=O)[C@H](C)NC(=O)[C@H](CCC(N)=O)NC(=O)CNC(=O)[C@H](CCC(=O)O)NC(=O)[C@H](CC(C)C)NC(=O)[C@H](Cc1ccc(O)cc1)NC(=O)[C@H](CO)NC(=O)[C@H](CO)NC(=O)[C@@H](NC(=O)[C@H](CC(=O)O)NC(=O)[C@H](CO)NC(=O)[C@@H](NC(=O)[C@H](Cc1ccccc1)NC(=O)[C@@H](NC(=O)CNC(=O)[C@H](CCC(=O)O)NC(=O)C(C)(C)NC(=O)[C@@H](N)Cc1cnc[nH]1)[C@@H](C)O)[C@@H](C)O)C(C)C)C(=O)N[C@@H](C)C(=O)N[C@@H](Cc1c[nH]c2ccccc12)C(=O)N[C@@H](CC(C)C)C(=O)N[C@H](C(=O)N[C@@H](CCCNC(=N)N)C(=O)NCC(=O)N[C@@H](CCCNC(=N)N)C(=O)NCC(=O)O)C(C)C`, “average steady-state concentration” read 21.8 nmol/L (human lowest body weight; 0.5 mg once weekly, 39.7-60.2 kg).
For `Cc1cc(C)c(/C=C2\C(=O)Nc3ccccc32)[nH]1`, “right ventricular systolic pressure” read 61.9 ± 6.1 mmHg (male Sprague-Dawley rat, hypoxic pulmonary hypertension; subcutaneous, 20 mg/kg, 14 days post-hypoxia, 3 weeks hypoxia).
`COc1cccc(-c2ccc(NC(=O)C3=C(C(=O)O)CCC3)c(F)c2)c1`: “AUC(0-24) accumulation ratio” 1.58 (male healthy human, plasma; oral, 50 mg daily, day 13-14, pre-dosed; baseline: day 0-1).
For `COc1ccc(-c2cc(=O)c3c(OC)c(OC)c(OC)cc3o2)cc1OC`, “tissue to peel content ratio” read 0.216% (C57BL/6 mouse, male, liver; oral, 1% w/w in diet, 6 weeks, orange peel extract diet; baseline: content in orange peel).
For `COc1ccc2nc([S@@+]([O-])Cc3ncc(C)c(OC)c3C)[nH]c2c1`, the adverse events was 8% (human healthy; 40 mg).
`Nc1nc2cccc(-c3ccc(CN4CCS(=O)(=O)CC4)cc3)n2n1`: “metabolite/parent plasma concentration” about 13 fold (human, plasma; 30 to 300 mg filgotinib, steady state; baseline: compound over filgotinib).
`CC(=O)O[C@H]1C(=O)[C@@]2(C)[C@H]([C@H](OC(=O)c3ccccc3)[C@]3(O)C[C@H](OC(=O)[C@H](O)[C@@H](NC(=O)c4ccccc4)c4ccccc4)C(C)=C1C3(C)C)[C@]1(OC(C)=O)CO[C@@H]1C[C@@H]2O` has a clearance of 270 ± 48.5 mL/min (non-compartmental; human patients, plasma; intravenous, 200 mg/m^2, together with: lenvatinib 6 mg twice daily).
